Measurements from different studies.
Each line is one published result; not all experiments were run side by side. ± marks the error that the study gave.

Structure (SMILES) | test | system | conditions | how to read | quantity | result
NC(=O)[C@@H](Cc1ccccc1)N[11C](=O)OCc1ccccc1 | PET | male Wistar rat | intravenous, 10 min, together with: self-blocking 3 µmol/kg i.v. 3 min before |  | spinal cord SUV | 1 SUV
CC(C)[C@H](NC(=O)CNC(=O)[C@H](CCC(N)=O)NC(=O)[C@H](C)N)C(=O)O |  | healthy male volunteers | intravenous, 45 mg/kg/h, 2 h, together with: LPS 2 ng/kg |  | subjects with unrelated AE | 25%
[11CH3]n1c(=O)n(CCCO)c(=O)c2c1nc(Oc1cccc(OC(F)(F)F)c1)n2Cc1ccc(Cl)cc1 |  | Sprague Dawley rat, brain |  | relative to: 5 min over 60 min | brain uptake ratio | 2.04
CN(C)C(CNC(=O)Nc1cc(C(F)(F)F)ccc1N1CCOCC1)c1ccncc1 (centres unmarked) |  | mouse, serum | intraperitoneal, 120 mg/kg single dose |  | serum cholesterol | 72 mg/dL
CC(=CCC(O)C(C)=Cc1csc(C)n1)CC=CC(C)C(O)C(C)C(=O)C(C)(C)C(O)CC(=O)O (centres unmarked) |  | human, plasma | intravenous infusion, 8.5 mg/m2 KOS-1584, 3 h infusion, cycle 1 |  | Tmax | 3.17 ± 0.31 h
CC(CCC(=O)NCC(=O)O)C1CCC2C3C(O)CC4CC(OC5OC(C(=O)O)C(O)C(O)C5O)CCC4(C)C3CCC12C (centres unmarked) | refers to: glucuronide to parent ratio | human, plasma | dose not given, sex-adjusted | relative to: C/C over T/T | ratio of metabolic ratios | 6.83
CC(=O)CCN1CCN(C(=O)CC2N=C(c3ccc(Cl)cc3)c3c(sc(C)c3C)-n3c(C)nnc32)CC1 (centres unmarked) | experimental |  |  |  | pKa | 6.47 ± 0.02
O=C(c1ccc(F)cc1)C1CCN(C2Cc3c(cccc3OCC[18F])CC2O)CC1 (single isomer, unassigned; (-)) |  | male Sprague-Dawley rat, striatum | intravenous, 30 min |  | brain uptake | 0.886 %ID/g
COc1ccc(C)cc1NC(=O)OC1CC2CCCC(C1)N2Cc1ccc(CC[18F])cc1 (centres unmarked) |  | mouse, fat | 30 min, tumour-bearing |  | tracer uptake | 8.58 %ID/g
CCCCCCCC/C=C\CCCCCCCCOP(O)(O)=S.N |  | mouse, male, nonirradiated | subcutaneous, single dose |  | Vz/F | 1.34 L/kg
CN[C@](C)(C[18F])C(=O)O |  | SCID mouse A549 xenograft, brain | 60 min, post injection |  | tissue uptake | 0.2 ± 0.1 %ID/g
CSCC[C@@H]1NC(=O)[C@@H]2CSSC[C@H](NC(=O)[C@H](CO)NC(=O)[C@H](C)N)C(=O)N[C@@H](CCCNC(=N)N)C(=O)N[C@@H]([C@@H](C)O)C(=O)N3CCC[C@H]3C(=O)N[C@@H](CCCCN)C(=O)N[C@@H](CC(=O)O)C(=O)N[C@H]3CSSC[C@H](NC(=O)[C@H](CCCCN)NC(=O)[C@H](CCCNC(=N)N)NC(=O)[C@H](CC(N)=O)NC1=O)C(=O)N[C@@H](CCCCN)C(=O)N[C@H]1CSSC[C@H](NC(=O)[C@@H]4CCCN4C(=O)[C@H](CC(=O)O)NC(=O)[C@H](C)NC3=O)C(=O)N[C@@H](C)C(=O)N[C@@H](CCCCN)C(=O)N[C@@H](CCC(=O)O)C(=O)N[C@@H]([C@@H](C)O)C(=O)NCC(=O)N[C@@H](CSSC[C@@H](C(N)=O)NC(=O)[C@H](CCCNC(=N)N)NC(=O)[C@H](CC(N)=O)NC1=O)C(=O)N1CCC[C@H]1C(=O)N[C@@H](Cc1ccc(O)cc1)C(=O)NCC(=O)N[C@@H](CCCCN)C(=O)N2 |  | DA rat, pristane-induced arthritis, serum | subcutaneous, single 0.1 mg/kg at onset, end of 21-day trial |  | creatine kinase | 443 U/L
CCCCCCCC(=O)NCCCC[C@H](NC(=O)[C@H](Cc1ccccc1)NC(=O)[C@@H](CCCNC(=N)N)NC(=O)[C@@H](N)Cc1ccc(O)cc1)C(N)=O |  | male CD-1 mouse, plasma | intravenous, 3 mg/kg |  | clearance | 1.19 mL/min
CC(C)C[C@@H](NC(=O)[C@@H](Cc1ccccc1)NC(=O)[C@H](N)Cc1ccccc1)C(=O)N[C@H](CCCCN)C(=O)N1CCC(N)(C(=O)O)CC1 |  | human, plasma | intravenous, 15 µg/kg |  | volume of distribution | 0.171 L/kg
N=C(N)NCc1ccc(C(=O)NCCCC[C@H](NC(=O)N[C@@H](CCC(=O)O)C(=O)O)C(=O)O)cc1[211At] |  | SCID mouse, PC-3 xenografts, stomach | 1 h |  | tissue uptake | 2.01 ± 0.41 %ID/g
CC(C)C[C@H](NC(=O)[C@H](CCCCN)NC(=O)[C@H](CCC(=O)O)NC(=O)[C@H](C)NC(=O)[C@@H](NC(=O)[C@H](CCCCN)NC(=O)[C@H](CC(=O)O)NC(=O)[C@H](Cc1ccc(O)cc1)NC(=O)[C@H](Cc1ccccc1)NC(=O)[C@H](C)NC(=O)[C@H](CCCCN)NC(=O)[C@H](CC(C)C)NC(=O)[C@H](Cc1c[nH]c2ccccc12)NC(=O)[C@@H](N)CC(=O)O)C(C)C)C(=O)N[C@@H](CCCCN)C(=O)N[C@@H](CCC(=O)O)C(=O)N[C@@H](C)C(=O)N[C@@H](Cc1ccccc1)C(=O)N1CCC[C@H]1C(=O)N[C@@H](CC(=O)O)C(=O)N[C@@H](Cc1c[nH]c2ccccc12)C(=O)N[C@@H](C)C(=O)N[C@@H](CCCCN)C(=O)N[C@@H](C)C(=O)N[C@@H](C)C(=O)N[C@@H](Cc1ccc(O)cc1)C(=O)N[C@@H](CC(=O)O)C(=O)N[C@@H](CCCCN)C(=O)N[C@@H](C)C(=O)N[C@@H](C)C(=O)N[C@@H](CCC(=O)O)C(=O)N[C@@H](CCCCN)C(=O)N[C@@H](C)C(=O)N[C@@H](CCCCN)C(=O)N[C@@H](CCC(=O)O)C(=O)N[C@@H](C)C(=O)N[C@@H](C)C(=O)O | LC-MS/MS | cynomolgus monkey, male, plasma | IV infusion, 8 mg/kg/dose, day 1, 30 min infusion |  | Cmax | 108 µg/mL
CCCCCCCCC=CCCCCCCCC(=O)OCC1OC(n2ccc(N)nc2=O)C(F)(F)C1O (centres unmarked) |  | female nude mouse, colon xenograft, patient-derived colon tumour | oral, 50 mg/kg, dosed days 1 and 8 |  | body weight loss | 0%
CC[C@@H](C)[C@@H](NC(=O)[C@@H](C)NC(=O)[C@@H](CCCCN)NC(=O)[C@@H](CC(C)C)NC(=O)[C@@H](C)NC(=O)[C@H](NC(=O)[C@@H](Cc1c[nH]cn1)NC(=O)[C@@H](CC(C)C)NC(=O)[C@H](NC(=O)[C@H](NC(=O)[C@@H](CCCCN)NC(=O)[C@@H](CCCCN)NC(=O)[C@@H](C)NC(=O)[C@@H](CO)NC(=O)[C@@H](CCCCN)NC(=O)[C@@H](Cc1ccccc1)NC(=O)[C@H](NC(=O)[C@@H](CCCCN)NC(=O)[C@@H](CC(C)C)NC(=O)[C@@H](Cc1ccccc1)NC(=O)[C@@H](CO)NC(=O)[C@@H](CCCCN)NC(=O)[C@@H](Cc1c[nH]c2ccccc12)NC(=O)[C@@H](CCCCN)NC(C)=O)[C@H](C)O)[C@H](C)O)C(C)C)[C@H](C)O)C(=O)N[C@H](CO)C(=O)N[C@H](CO)C(N)=O | RP-HPLC C8 |  | pH 2 |  | retention time | 76.8 min
CSCC[C@H](NC(=O)CNC(=O)[C@H](CC(=O)O)NC(=O)[C@@H](NC(=O)[C@@H](NC(=O)[C@@H](NC(=O)CNC(=O)[C@H](CCC(N)=O)NC(=O)[C@H](CCSC)NC(=O)[C@H](CC(=O)O)NC(=O)[C@H](C)NC(=O)[C@H](C)NC(=O)[C@@H](NC(=O)[C@H](CO)NC(=O)[C@@H](N)CC(C)C)[C@@H](C)O)C(C)C)C(C)C)[C@@H](C)O)C(=O)N[C@@H](C)C(=O)N[C@@H](CO)C(=O)NCC(=O)N[C@@H](CC(C)C)C(=O)N[C@@H](CC(=O)O)C(=O)N[C@@H](CCCCN)C(=O)N[C@@H](CC(=O)O)C(=O)N[C@@H](Cc1ccc(O)cc1)C(=O)N[C@@H](CC(C)C)C(=O)N[C@@H](CCCCN)C(=O)N1CCC[C@H]1C(=O)N[C@@H](CC(=O)O)C(=O)N[C@@H](CC(=O)O)C(=O)O |  | human patients, serum | intravenous infusion, 3 mg/kg |  | distribution half-life | 1.14 min
Cc1cccc(O[C@H]2CCC[C@@H](C(C)CNCc3ccncc3)C2)c1 (relative stereo) |  | APP/PS1 mice, brain | oral, 25 mg/kg/day, 7 months |  | brain concentration | 0.1 to 1 µM
COC(=O)C[C@H](NC(=O)[C@H](C)NC(=O)[C@@H](NC(=O)[C@H](CC(=O)OC)NC(=O)[C@@H](NC(=O)c1ccc2ccccc2n1)C(C)C)C(C)C)C(=O)COc1c(F)cccc1F | echography | rat pups | 1 mg/kg, 1 h |  | left ventricular output | 0.157 ± 0.015 mL/min
CCCCCc1cc(O)c2c(c1)OC(C)(C)C1CCC(C(=O)OC3OC(C(=O)O)C(O)C(O)C3O)=CC21 (centres unmarked) | tube adsorption method | human liver microsome incubation | 50 µM, 30 min |  | unbound fraction | 0.43 ± 0.071
CC[C@H](C)C(=O)N1CCC(NC(=O)Nc2ccc(OC(F)(F)F)c(F)c2)CC1 |  | healthy volunteers | oral, 0.5 mg single dose |  | subjects with insomnia TEAE | 0%
CC(C)[C@H](NC(=O)CNC(=O)[C@H](CCC(N)=O)NC(=O)[C@H](C)N)C(=O)O | refers to: short-lasting postural dizziness | human | concentration not given, multiple dosing, lowest dose |  | subjects with adverse event | 33%
COc1cc(-c2cncc(-c3ccc(N4CCN([11CH3])CC4)cc3)c2C)cc(OC)c1OC | dynamic PET | Sprague-Dawley rats male, whole brain | intravenous |  | time to peak brain SUV | ≤ 1 min
C[C@H](CCC(=O)N[C@@H](CCCCNC(=O)C(F)(F)F)C(=O)O)[C@H]1CC[C@H]2[C@@H]3[C@H](O)C[C@@H]4C[C@H](O)CC[C@]4(C)[C@H]3C[C@H](O)[C@]12C |  | C57BL/6J mice, liver | oral, 50 mg/kg, 5 h |  | concentration | 12.7 µM
COC(=O)C[C@](O)(CCCC(C)(C)OC(C)=O)C(=O)O[C@@H]1C(OC)=C[C@]23CCCN2CCc2cc4c(cc2[C@H]13)OCO4 |  | CD1 mouse, stomach | subcutaneous, 1 mg/kg, 0.5 h |  | tissue concentration | 297 ng/mL
CC(C)C[C@@H](NC(=O)[C@@H](C)NC(=O)[C@@H](CC(C)C)NC(=O)[C@@H](CCCCN)NC(=O)[C@@H](CCCCN)NC(=O)[C@@H](CC(C)C)NC(=O)[C@@H](C)NC(=O)[C@@H](CC(C)C)NC(=O)[C@@H](CC(C)C)NC(=O)[C@@H](Cc1c[nH]c2ccccc12)NC(=O)[C@@H](CCCCN)NC(=O)[C@@H](CCCCN)NC(=O)[C@@H](CC(C)C)NC(=O)[C@@H](C)NC(=O)[C@@H](CC(C)C)NC(=O)[C@@H](CC(C)C)NC(=O)[C@@H](C)NC(=O)[C@@H](CC(C)C)NC(=O)[C@@H](CCCCN)NC(=O)[C@H](N)CCCCN)C(=O)N[C@H](CC(C)C)C(=O)N[C@H](C)C(=O)N[C@H](CC(C)C)C(=O)N[C@H](CCCCN)C(=O)N[C@H](CCCCN)C(N)=O | haemolysis | human erythrocytes | 30 min, pH 7.4, 37 °C |  | HC50 | 4.06 ± 1.3 µM
Cc1ccc(C(C)C)cc1.Cn1ccnc1CNCCNc1ccnc2cc(Cl)ccc12.[Cl-].[Cl][Ru+] | shake-flask method | water/n-octanol | pH 4.9 |  | distribution coefficient D | 0.007 ± 0.002

For quick reference, copied from above:
Structure (SMILES) | test | system | conditions | how to read | quantity | result
Cc1cccc(O[C@H]2CCC[C@@H](C(C)CNCc3ccncc3)C2)c1 (relative stereo) |  | APP/PS1 mice, brain | oral, 25 mg/kg/day, 7 months |  | brain concentration | 0.1 to 1 µM
CN(C)C(CNC(=O)Nc1cc(C(F)(F)F)ccc1N1CCOCC1)c1ccncc1 (centres unmarked) |  | mouse, serum | intraperitoneal, 120 mg/kg single dose |  | serum cholesterol | 72 mg/dL
COC(=O)C[C@H](NC(=O)[C@H](C)NC(=O)[C@@H](NC(=O)[C@H](CC(=O)OC)NC(=O)[C@@H](NC(=O)c1ccc2ccccc2n1)C(C)C)C(C)C)C(=O)COc1c(F)cccc1F | echography | rat pups | 1 mg/kg, 1 h |  | left ventricular output | 0.157 ± 0.015 mL/min
CCCCCc1cc(O)c2c(c1)OC(C)(C)C1CCC(C(=O)OC3OC(C(=O)O)C(O)C(O)C3O)=CC21 (centres unmarked) | tube adsorption method | human liver microsome incubation | 50 µM, 30 min |  | unbound fraction | 0.43 ± 0.071
